Published values of several laboratories.
± gives the spread as reported.
Polyprotein P1234 nsP2 protease domain: Polyprotein P1234, nsP2 protease domain (Chikungunya virus, UniProt Q5XXP4)
Chain of UniProt Q5XXP4 (whole entry, looked up): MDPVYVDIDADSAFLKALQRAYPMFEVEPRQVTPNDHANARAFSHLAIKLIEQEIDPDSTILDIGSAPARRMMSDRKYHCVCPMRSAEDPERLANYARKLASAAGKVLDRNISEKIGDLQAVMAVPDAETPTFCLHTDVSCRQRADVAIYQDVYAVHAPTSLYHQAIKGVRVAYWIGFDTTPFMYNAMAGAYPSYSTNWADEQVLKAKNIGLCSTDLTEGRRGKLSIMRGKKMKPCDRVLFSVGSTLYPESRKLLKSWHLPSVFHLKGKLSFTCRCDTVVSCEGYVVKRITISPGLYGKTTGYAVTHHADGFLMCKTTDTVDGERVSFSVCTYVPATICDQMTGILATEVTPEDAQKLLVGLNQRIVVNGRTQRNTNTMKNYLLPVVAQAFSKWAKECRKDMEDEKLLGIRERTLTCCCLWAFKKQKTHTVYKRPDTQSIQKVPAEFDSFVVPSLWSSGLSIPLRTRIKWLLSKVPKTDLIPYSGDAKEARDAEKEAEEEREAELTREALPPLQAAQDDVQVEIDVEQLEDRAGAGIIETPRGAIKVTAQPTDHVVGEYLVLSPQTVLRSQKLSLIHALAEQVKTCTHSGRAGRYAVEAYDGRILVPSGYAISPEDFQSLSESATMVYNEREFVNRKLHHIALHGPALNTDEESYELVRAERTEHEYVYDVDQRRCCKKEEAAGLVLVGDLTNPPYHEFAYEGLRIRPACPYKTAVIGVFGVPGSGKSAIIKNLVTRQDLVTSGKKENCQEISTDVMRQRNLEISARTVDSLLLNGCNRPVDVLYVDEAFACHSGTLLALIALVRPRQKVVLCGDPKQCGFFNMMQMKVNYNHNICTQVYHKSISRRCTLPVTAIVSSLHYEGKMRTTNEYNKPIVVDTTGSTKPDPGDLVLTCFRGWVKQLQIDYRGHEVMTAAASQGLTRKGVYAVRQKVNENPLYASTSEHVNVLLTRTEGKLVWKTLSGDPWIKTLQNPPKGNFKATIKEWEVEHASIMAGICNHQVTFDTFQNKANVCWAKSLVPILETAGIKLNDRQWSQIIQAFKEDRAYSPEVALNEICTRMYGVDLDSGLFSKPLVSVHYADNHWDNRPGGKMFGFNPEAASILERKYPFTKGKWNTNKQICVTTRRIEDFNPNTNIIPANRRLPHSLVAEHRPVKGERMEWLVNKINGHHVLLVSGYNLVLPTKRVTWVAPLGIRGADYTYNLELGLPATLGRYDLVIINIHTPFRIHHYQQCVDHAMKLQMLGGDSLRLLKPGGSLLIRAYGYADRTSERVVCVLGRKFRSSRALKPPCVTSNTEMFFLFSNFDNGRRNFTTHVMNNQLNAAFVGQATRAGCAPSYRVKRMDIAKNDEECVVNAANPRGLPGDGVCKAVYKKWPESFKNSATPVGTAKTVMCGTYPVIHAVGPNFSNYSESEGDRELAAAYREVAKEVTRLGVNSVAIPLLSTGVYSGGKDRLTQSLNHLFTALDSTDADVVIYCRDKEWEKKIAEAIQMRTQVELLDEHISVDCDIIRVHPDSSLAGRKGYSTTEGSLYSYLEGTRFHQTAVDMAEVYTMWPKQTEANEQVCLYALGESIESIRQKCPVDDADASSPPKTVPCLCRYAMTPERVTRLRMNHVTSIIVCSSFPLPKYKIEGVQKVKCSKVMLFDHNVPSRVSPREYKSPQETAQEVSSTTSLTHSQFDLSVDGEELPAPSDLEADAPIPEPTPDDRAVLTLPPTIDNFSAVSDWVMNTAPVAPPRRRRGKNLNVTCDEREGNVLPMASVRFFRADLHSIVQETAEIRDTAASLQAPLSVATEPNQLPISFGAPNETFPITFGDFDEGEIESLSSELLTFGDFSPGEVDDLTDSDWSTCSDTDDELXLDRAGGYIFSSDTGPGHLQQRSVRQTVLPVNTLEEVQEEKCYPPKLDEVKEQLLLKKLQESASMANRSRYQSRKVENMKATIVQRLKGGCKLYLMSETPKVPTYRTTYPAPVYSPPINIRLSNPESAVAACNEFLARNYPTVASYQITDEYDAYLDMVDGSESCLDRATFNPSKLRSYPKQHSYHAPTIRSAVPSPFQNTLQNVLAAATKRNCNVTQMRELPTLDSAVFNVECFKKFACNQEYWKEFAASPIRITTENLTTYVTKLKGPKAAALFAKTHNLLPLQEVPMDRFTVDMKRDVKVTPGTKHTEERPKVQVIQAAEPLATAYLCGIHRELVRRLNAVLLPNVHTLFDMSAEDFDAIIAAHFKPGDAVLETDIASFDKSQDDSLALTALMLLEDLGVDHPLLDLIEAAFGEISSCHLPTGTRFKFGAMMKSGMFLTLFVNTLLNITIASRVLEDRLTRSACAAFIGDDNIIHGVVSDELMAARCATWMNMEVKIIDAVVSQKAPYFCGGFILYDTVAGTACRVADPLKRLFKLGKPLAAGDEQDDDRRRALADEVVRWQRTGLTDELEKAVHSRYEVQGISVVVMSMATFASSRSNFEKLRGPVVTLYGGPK
Spike glycoprotein: Spike glycoprotein (Severe acute respiratory syndrome coronavirus 2, UniProt P0DTC2)
HLA class I histocompatibility antigen, B alpha chain: HLA class I histocompatibility antigen, B alpha chain (Homo sapiens, UniProt P01889)
nanI: Sialidase (nanI, Clostridium perfringens, UniProt A0A0H2YQR1)
Chain of UniProt P05177 (whole entry, looked up): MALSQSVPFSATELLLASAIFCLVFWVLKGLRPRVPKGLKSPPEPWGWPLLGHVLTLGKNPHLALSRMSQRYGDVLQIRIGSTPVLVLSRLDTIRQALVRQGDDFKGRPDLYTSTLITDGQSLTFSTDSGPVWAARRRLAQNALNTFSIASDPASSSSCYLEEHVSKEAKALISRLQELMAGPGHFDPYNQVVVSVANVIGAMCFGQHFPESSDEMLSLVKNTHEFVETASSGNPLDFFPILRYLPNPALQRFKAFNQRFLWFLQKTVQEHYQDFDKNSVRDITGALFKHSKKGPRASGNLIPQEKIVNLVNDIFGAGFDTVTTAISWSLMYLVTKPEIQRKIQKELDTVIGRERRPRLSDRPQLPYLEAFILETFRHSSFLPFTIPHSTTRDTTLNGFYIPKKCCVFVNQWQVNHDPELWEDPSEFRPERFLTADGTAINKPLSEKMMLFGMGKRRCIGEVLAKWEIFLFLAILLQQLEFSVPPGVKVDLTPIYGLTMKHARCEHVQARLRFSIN
Chain of UniProt A0A7H0DNC1 (whole entry, looked up): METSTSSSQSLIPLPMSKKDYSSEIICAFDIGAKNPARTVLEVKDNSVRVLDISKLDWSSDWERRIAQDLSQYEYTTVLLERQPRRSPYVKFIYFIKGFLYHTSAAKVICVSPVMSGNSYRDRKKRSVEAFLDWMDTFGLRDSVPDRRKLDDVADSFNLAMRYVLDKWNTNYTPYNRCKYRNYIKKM
Chain of UniProt P36544 (whole entry, looked up): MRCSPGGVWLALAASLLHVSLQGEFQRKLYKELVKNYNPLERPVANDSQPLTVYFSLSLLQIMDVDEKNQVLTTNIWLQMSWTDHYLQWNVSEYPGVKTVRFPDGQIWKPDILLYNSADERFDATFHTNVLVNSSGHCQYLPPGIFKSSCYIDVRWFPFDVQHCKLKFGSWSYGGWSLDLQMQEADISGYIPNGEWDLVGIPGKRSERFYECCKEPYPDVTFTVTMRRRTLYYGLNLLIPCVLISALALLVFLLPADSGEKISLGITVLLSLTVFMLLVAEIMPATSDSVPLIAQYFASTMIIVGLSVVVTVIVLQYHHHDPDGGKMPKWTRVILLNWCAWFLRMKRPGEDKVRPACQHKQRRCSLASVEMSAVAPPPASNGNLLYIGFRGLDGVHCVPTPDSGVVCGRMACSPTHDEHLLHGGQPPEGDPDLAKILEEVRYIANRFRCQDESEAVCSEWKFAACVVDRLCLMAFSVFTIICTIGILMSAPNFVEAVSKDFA

With `CC[C@H](C)[C@H](NC(=O)[C@@H](NC(=O)CNC(=O)[C@H](CO)NC(=O)[C@H](CO)NC(=O)[C@@H](NC(=O)[C@@H](N)C(C)C)[C@@H](C)O)C(C)C)C(=O)N[C@@H](Cc1ccc(O)cc1)C(=O)N[C@@H](CCCCN)C(=O)O` the IC50 was 0.0039 µM (HLA class I histocompatibility antigen, A alpha chain, allele A*11:01 (Homo sapiens, UniProt P04439); biochemical).
`Cn1cnc(Cn2c(=O)[nH]/c(=N\c3cc4cn(C)nc4cc3Cl)n(Cc3cc(F)c(F)cc3F)c2=O)n1`: “patients with adverse event” 0% (human, severe renal impairment; oral, 375 mg, treatment-related decreased GFR, Severe severity).
For `CC(C)[C@H](N)C(=O)N[C@H](C(=O)N[C@@H](CC(=O)O)C(=O)N[C@H](C(=O)N[C@@H](CC(N)=O)C(=O)N[C@@H](CCCCN)C(=O)N[C@@H](Cc1ccccc1)C(=O)N[C@@H](CC(=O)O)C(=O)N[C@@H](CC(N)=O)C(=O)N[C@@H](Cc1ccc(O)cc1)C(=O)O)[C@@H](C)O)[C@@H](C)O`, the IC50 was 0.256 µM (HLA class I histocompatibility antigen, A alpha chain, allele A*30:02 (Homo sapiens, UniProt P04439); biochemical).
The IC50 of `Cn1cnc(Cn2c(=O)[nH]/c(=N\c3cc4cn(C)nc4cc3Cl)n(Cc3cc(F)c(F)cc3F)c2=O)n1` is reported as > 100 µM (Cytochrome P450 1A2 (CYP1A2, Homo sapiens, UniProt P05177); enzyme activity, inhibitor; human liver microsomes; 30 min preincubation, pH 7.4, preincubation with NADPH, added: phenacetin 90 µM).
With `CCC(C(=O)Nc1cnn(C)c1)n1cccc2nc(SCc3ccc(F)cc3)nc1-2` (stereo not drawn) the IC50 was > 100 µM (Replicase polyprotein 1ab, papain-like protease (rep, Middle East respiratory syndrome-related coronavirus, UniProt K9N7C7); enzyme activity, inhibitor).
The IC50 of `C=CC(=O)N1C[C@@H]2CC[C@@H]2[C@H]1C(=O)O` is reported as 20 ± 7 µM (Polyprotein P1234 nsP2 protease domain; enzyme activity, inhibitor, FRET; 90 min, 30 min preincubation).
For `CCC(C(=O)Nc1cc(NC2COC2)ccc1C)n1cc(F)cc2nc(SCc3ccc(F)cc3)nc1-2` (stereo not drawn), the IC50 was > 100 µM (Replicase polyprotein 1ab, papain-like protease (rep, Middle East respiratory syndrome-related coronavirus, UniProt K9N7C7); enzyme activity, inhibitor).
With `C=CS(=O)(=O)CCC(=O)Nc1nn(C2CCCCC2)cc1C` the IC50 was 24 ± 3 µM (Polyprotein P1234 nsP2 protease domain; protease activity, inhibitor, FRET; 90 min, 30 min preincubation).
`CCc1c(C(=O)C(N)=O)c2c(OCC(=O)O)cccc2n1Cc1ccccc1` has an IC50 of 1.66 µM (Daboia russelii venom PLA2; enzyme activity, inhibitor; venom from Maharashtra, added: NOB substrate).
For `CCc1c2c(nc3ccc(OC(=O)N4CCC(N5CCCCC5)CC4)cc13)-c1cc3c(c(=O)n1C2)COC(=O)[C@]3(O)CC`, the Kd was 59.8 µM (Spike glycoprotein; binding, biolayer interferometry).
`COc1cc(Nc2ncc(F)c(Nc3ccc4c(n3)NC(=O)C(C)(C)O4)n2)cc(OC)c1OC` has an IC50 of > 10 µM (Neuronal acetylcholine receptor subunit alpha-7 (CHRNA7, Homo sapiens, UniProt P36544)).
`CCC(C(=O)Nc1cc(NC2CNC2)ccc1C)n1cc(Br)cc2nc(SCc3ccc(F)cc3)nc1-2` (stereo not drawn) gave an IC50 of > 100 µM (Replicase polyprotein 1ab, papain-like protease (rep, Middle East respiratory syndrome-related coronavirus, UniProt K9N7C7); enzyme activity, inhibitor).
`CC[C@H](C)[C@H](NC(=O)[C@H](C)NC(=O)[C@H](Cc1ccccc1)NC(=O)[C@H](CCCNC(=N)N)NC(=O)[C@@H](NC(=O)[C@H](C)NC(=O)[C@@H]1CCCN1C(=O)[C@H](CCCCN)NC(=O)[C@@H]1CCCN1C(=O)[C@@H](N)CCCCN)C(C)C)C(=O)O` gave an IC50 of 0.00018 µM (HLA class I histocompatibility antigen, B alpha chain; biochemical).
For `CCC(C(=O)Nc1cc(NC2CCOCC2)ccc1C)n1cc(Br)cc2nc(SCc3ccc(F)cc3)nc1-2` (stereo not drawn), the IC50 was 0.487 ± 0.018 µM (Replicase polyprotein 1ab, papain-like protease (rep, Severe acute respiratory syndrome-related coronavirus, UniProt P0C6X7); enzyme activity).
`CC1=C(C#N)C(=O)N(C2CCS(=O)(=O)C2)C(=O)/C1=C\c1ccco1` (stereo not drawn) has an IC50 of 74 µM (Replicase polyprotein 1ab, nsp13 helicase (rep, Severe acute respiratory syndrome coronavirus 2, UniProt P0DTD1); helicase ATPase activity, inhibitor, Kinase-Glo luminescence).
`CC[C@H](C)[C@H](NC(=O)[C@H](CC(N)=O)NC(=O)CNC(=O)[C@H](CC(=O)O)NC(=O)[C@H](Cc1ccc(O)cc1)NC(=O)[C@H](Cc1ccc(O)cc1)NC(=O)[C@@H](N)CCCNC(=N)N)C(=O)N[C@@H](Cc1ccc(O)cc1)C(=O)N[C@@H](CC(=O)O)C(=O)N[C@@H](CC(C)C)C(=O)O` gave an IC50 of 0.121 µM (HLA class I histocompatibility antigen, A alpha chain, allele A*24:02 (Homo sapiens, UniProt P04439); biochemical).
`CCC(C(=O)Nc1ccccc1C)n1cccc2nc(S)nc1-2` (stereo not drawn) gave an IC50 of > 20 µM (Replicase polyprotein 1ab, papain-like protease (rep, Severe acute respiratory syndrome-related coronavirus, UniProt P0C6X7); enzyme activity).
Under “subjects with treatment-induced ADA”, `CC[C@H](C)[C@H](NC(=O)[C@H](CC(C)C)NC(=O)[C@H](Cc1c[nH]c2ccccc12)NC(=O)[C@H](CCC(N)=O)NC(=O)[C@@H](NC(=O)[C@H](Cc1ccccc1)NC(=O)[C@H](C)NC(=O)[C@H](CCCCNC(=O)COCCOCCNC(=O)COCCOCCNC(=O)CC[C@H](NC(=O)CCCCCCCCCCCCCCCCCCC(=O)O)C(=O)O)NC(=O)[C@H](CCC(N)=O)NC(=O)[C@H](C)NC(=O)[C@@H](NC(=O)[C@H](CCCCN)NC(=O)[C@H](CC(=O)O)NC(=O)[C@H](CC(C)C)NC(=O)C(C)(C)NC(=O)[C@@H](NC(=O)[C@H](CO)NC(=O)[C@H](Cc1ccc(O)cc1)NC(=O)[C@H](CC(=O)O)NC(=O)[C@H](CO)NC(=O)[C@@H](NC(=O)[C@H](Cc1ccccc1)NC(=O)[C@@H](NC(=O)CNC(=O)[C@H](CCC(=O)O)NC(=O)C(C)(C)NC(=O)[C@@H](N)Cc1ccc(O)cc1)[C@@H](C)O)[C@@H](C)O)[C@@H](C)CC)[C@@H](C)CC)C(C)C)C(=O)N[C@@H](C)C(=O)NCC(=O)NCC(=O)N1CCC[C@H]1C(=O)N[C@@H](CO)C(=O)N[C@@H](CO)C(=O)NCC(=O)N[C@@H](C)C(=O)N1CCC[C@H]1C(=O)N1CCC[C@H]1C(=O)N1CCC[C@H]1C(=O)N[C@@H](CO)C(N)=O` is recorded as 0% (item: anti-drug antibodies; patients with type 2 diabetes; 5 mg, postbaseline, proof of concept, titre ≥1:20).
The IC50 of `CC[C@H](C)[C@H](NC(=O)[C@H](C)NC(=O)[C@H](CC(=O)O)NC(=O)[C@H](CC(N)=O)NC(=O)[C@H](CCC(=O)O)NC(=O)[C@@H](N)CC(C)C)C(=O)N[C@@H](CCCNC(=N)N)C(=O)N[C@H](C(=O)N[C@@H](Cc1ccc(O)cc1)C(=O)O)[C@@H](C)CC` is reported as 0.02 µM (HLA class I histocompatibility antigen, B alpha chain, allele B*44:03 (Homo sapiens, UniProt P01889); biochemical).
With `CC(C)CCC(=O)N[C@H]1[C@H]([C@H](O)[C@H](O)CO)OC(C(=O)O)=C[C@@H]1O` the IC50 was > 500 µM (nanI; enzyme activity, inhibitor).
`[N-]=[N+]=Nc1ccsc1C(=O)O` gave an IC50 of 410 µM (cpsA (Mycobacterium tuberculosis, UniProt O06347); concentration not given).
`Nc1ncnc2c([C@@H]3N[C@H](CO)[C@@H](O)[C@H]3O)c[nH]c12` has an inhibition of 78.5% (Western equine encephalitis virus; viral replication, inhibitor; Vero 76; 29.6 µM).
`CCC(CC)O[C@@H]1C=C(C(=O)O)C[C@H](N)[C@H]1NC(C)=O` gave an IC50 of 0.00053 ± 2e-05 µM (Neuraminidase (Influenza A virus, UniProt Q3M0T6); human reference strains; mean).
For `CC[C@H](C)[C@H](NC(=O)[C@H](CCCNC(=N)N)NC(=O)[C@@H]1CCCN1C(=O)[C@H](C)N)C(=O)N[C@H](C(=O)N[C@@H](Cc1ccccc1)C(=O)NCC(=O)NCC(=O)N1CCC[C@H]1C(=O)O)[C@@H](C)O`, the IC50 was 1.96 µM (HLA class I histocompatibility antigen, B alpha chain; binding, competitor).
`CC(C)(C)c1cn([C@H]2[C@H]([C@H](O)[C@H](O)CO)OC(C(=O)O)=C[C@@H]2O)nn1` has an IC50 of 270 µM (nanI; enzyme activity, inhibitor).
For `CCC(C(=O)Nc1ccccc1C)n1cccc2nc([S+]([O-])Cc3ccc(F)cc3)nc1-2` (stereo not drawn), the IC50 was 15.7 ± 1.2 µM (Replicase polyprotein 1ab, papain-like protease (rep, Severe acute respiratory syndrome-related coronavirus, UniProt P0C6X7); enzyme activity).
With `C=CS(=O)(=O)c1ccc(C#N)cn1` the IC50 was 24 ± 4 µM (Polyprotein P1234 nsP2 protease domain; protease activity, inhibitor, FRET; 90 min, 30 min preincubation).
`CCC(CC)O[C@@H]1C=C(C(=O)O)C[C@H](N)[C@H]1NC(C)=O` gave an IC50 of 0.00188 µM (neuraminidase (Influenza A virus, UniProt G1FHY4)).
The Kd of `CC(C)=CCC[C@](C)(O[C@@H]1O[C@H](CO)[C@@H](O)[C@H](O)[C@H]1O)[C@H]1CC[C@]2(C)[C@@H]1[C@H](O)C[C@@H]1[C@@]3(C)CC[C@H](O[C@@H]4O[C@H](CO)[C@@H](O)[C@H](O)[C@H]4O)C(C)(C)[C@@H]3CC[C@]12C` is reported as 27.1 µM (Spike glycoprotein; binding, biolayer interferometry).
The IC50 of `Cc1nc(N2CCOCC2)sc1C(=O)NNC(=O)CCl` is reported as 65 ± 50 µM (Polyprotein P1234 nsP2 protease domain; protease activity, inhibitor, FRET; 90 min, 30 min preincubation).
`O=c1c(-c2ccccc2)c(O)c2cc(-c3cccc(-c4ccccc4)c3)cnc2n1O` has an IC50 of 0.335 µM (Resolvase OPG149 (OPG149, Monkeypox virus, UniProt A0A7H0DNC1)).
`CCC(C(=O)Nc1cc(NC2CNC2)ccc1C)n1cccc2nc(SCc3ccc(F)cc3)nc1-2` (stereo not drawn) has an IC50 of > 100 µM (Replicase polyprotein 1ab, papain-like protease (rep, Middle East respiratory syndrome-related coronavirus, UniProt K9N7C7); enzyme activity, inhibitor).
`O=C(N1CCC2(CC1)C[C@H](CN1CCCCS1(=O)=O)CCO2)C1(c2cc(F)cc(F)c2)CCCC1` has an IC50 of 0.85 µM (Polyprotein P1234, nsP2 (Chikungunya virus, UniProt Q8JUX6); nsP2 RNA unwinding, inhibitor, FRET strand separation).

Some of these lines once more:
With `C=CS(=O)(=O)c1ccc(C#N)cn1` the IC50 was 24 ± 4 µM (Polyprotein P1234 nsP2 protease domain; protease activity, inhibitor, FRET; 90 min, 30 min preincubation).
`CCc1c(C(=O)C(N)=O)c2c(OCC(=O)O)cccc2n1Cc1ccccc1` has an IC50 of 1.66 µM (Daboia russelii venom PLA2; enzyme activity, inhibitor; venom from Maharashtra, added: NOB substrate).
The IC50 of `CC[C@H](C)[C@H](NC(=O)[C@H](C)NC(=O)[C@H](CC(=O)O)NC(=O)[C@H](CC(N)=O)NC(=O)[C@H](CCC(=O)O)NC(=O)[C@@H](N)CC(C)C)C(=O)N[C@@H](CCCNC(=N)N)C(=O)N[C@H](C(=O)N[C@@H](Cc1ccc(O)cc1)C(=O)O)[C@@H](C)CC` is reported as 0.02 µM (HLA class I histocompatibility antigen, B alpha chain, allele B*44:03 (Homo sapiens, UniProt P01889); biochemical).
`CCC(C(=O)Nc1cc(NC2CNC2)ccc1C)n1cccc2nc(SCc3ccc(F)cc3)nc1-2` (stereo not drawn) has an IC50 of > 100 µM (Replicase polyprotein 1ab, papain-like protease (rep, Middle East respiratory syndrome-related coronavirus, UniProt K9N7C7); enzyme activity, inhibitor).
